Assay results gathered from unrelated publications.
Lines come from different studies, so protocols differ. Values joined by “and” are separate records of one study, mostly repeats; a detail may differ. ± gives the spread as reported.
UniProt P21554, sequence (whole entry, unmodified, looked up): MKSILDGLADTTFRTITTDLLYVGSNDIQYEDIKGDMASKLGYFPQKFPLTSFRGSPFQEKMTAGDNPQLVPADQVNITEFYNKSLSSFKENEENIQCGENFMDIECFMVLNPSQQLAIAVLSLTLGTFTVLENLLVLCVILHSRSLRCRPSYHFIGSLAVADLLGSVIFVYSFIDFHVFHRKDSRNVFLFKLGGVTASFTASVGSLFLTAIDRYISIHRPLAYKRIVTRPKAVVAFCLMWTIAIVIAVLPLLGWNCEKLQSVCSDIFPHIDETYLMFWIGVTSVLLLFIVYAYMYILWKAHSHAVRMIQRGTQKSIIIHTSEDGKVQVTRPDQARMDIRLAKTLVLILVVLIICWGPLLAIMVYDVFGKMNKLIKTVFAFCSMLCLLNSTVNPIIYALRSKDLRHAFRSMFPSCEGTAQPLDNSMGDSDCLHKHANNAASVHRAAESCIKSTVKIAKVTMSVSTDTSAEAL
UniProt Q01959, sequence (whole entry, unmodified, looked up): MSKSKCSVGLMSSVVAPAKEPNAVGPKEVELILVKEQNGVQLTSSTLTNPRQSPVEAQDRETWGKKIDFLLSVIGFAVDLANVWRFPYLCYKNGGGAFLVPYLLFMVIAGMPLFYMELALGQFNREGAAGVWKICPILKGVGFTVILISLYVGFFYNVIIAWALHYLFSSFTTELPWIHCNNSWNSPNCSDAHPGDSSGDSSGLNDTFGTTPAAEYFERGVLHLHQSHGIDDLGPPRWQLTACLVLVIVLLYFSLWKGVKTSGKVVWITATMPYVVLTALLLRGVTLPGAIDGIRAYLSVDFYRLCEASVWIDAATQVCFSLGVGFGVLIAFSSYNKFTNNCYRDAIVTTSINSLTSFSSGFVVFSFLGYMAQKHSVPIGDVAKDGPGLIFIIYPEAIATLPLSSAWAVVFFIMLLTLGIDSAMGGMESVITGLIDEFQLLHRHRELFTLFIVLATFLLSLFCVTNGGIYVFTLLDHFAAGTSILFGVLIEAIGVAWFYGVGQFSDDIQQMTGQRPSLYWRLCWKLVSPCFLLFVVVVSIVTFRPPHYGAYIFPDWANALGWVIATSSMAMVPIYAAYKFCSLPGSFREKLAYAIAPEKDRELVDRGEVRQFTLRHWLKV
UniProt P70343, sequence (whole entry, looked up): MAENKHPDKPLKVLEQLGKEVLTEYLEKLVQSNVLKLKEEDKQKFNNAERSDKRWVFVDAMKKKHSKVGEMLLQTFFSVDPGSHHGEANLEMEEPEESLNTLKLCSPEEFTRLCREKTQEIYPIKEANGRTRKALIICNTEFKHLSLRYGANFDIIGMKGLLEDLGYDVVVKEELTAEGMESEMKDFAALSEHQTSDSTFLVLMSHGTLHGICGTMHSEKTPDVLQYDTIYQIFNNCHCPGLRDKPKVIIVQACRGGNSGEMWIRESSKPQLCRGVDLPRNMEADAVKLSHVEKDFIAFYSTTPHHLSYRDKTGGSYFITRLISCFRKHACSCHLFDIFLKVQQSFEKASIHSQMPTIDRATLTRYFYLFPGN
UniProt P41143, sequence (whole entry, unmodified, looked up): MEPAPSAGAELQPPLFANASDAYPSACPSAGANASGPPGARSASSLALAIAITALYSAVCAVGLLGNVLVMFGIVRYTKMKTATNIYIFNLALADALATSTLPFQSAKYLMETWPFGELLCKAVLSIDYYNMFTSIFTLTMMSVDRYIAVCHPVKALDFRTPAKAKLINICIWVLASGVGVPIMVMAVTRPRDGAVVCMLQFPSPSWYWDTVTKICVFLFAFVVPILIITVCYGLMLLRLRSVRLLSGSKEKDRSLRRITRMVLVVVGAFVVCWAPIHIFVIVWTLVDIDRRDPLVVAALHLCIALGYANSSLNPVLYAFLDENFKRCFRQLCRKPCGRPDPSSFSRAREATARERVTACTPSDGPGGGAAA
UniProt P25100, sequence (whole entry, looked up): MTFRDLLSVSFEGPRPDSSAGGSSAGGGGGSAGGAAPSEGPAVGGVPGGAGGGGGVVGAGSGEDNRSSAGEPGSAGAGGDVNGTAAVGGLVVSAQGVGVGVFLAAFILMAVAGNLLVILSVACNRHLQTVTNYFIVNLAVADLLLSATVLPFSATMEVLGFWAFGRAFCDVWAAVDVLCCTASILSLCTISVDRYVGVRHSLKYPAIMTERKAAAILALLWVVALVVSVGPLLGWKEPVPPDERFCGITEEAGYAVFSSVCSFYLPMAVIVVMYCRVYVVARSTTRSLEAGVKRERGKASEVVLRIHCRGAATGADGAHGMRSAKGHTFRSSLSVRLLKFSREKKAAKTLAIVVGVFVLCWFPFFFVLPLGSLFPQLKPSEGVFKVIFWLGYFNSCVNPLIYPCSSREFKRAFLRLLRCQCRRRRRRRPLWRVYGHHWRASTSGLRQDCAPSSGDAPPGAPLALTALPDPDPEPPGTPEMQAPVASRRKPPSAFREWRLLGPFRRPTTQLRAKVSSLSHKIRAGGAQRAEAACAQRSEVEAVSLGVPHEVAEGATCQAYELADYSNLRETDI
UniProt P41586, sequence (whole entry, looked up): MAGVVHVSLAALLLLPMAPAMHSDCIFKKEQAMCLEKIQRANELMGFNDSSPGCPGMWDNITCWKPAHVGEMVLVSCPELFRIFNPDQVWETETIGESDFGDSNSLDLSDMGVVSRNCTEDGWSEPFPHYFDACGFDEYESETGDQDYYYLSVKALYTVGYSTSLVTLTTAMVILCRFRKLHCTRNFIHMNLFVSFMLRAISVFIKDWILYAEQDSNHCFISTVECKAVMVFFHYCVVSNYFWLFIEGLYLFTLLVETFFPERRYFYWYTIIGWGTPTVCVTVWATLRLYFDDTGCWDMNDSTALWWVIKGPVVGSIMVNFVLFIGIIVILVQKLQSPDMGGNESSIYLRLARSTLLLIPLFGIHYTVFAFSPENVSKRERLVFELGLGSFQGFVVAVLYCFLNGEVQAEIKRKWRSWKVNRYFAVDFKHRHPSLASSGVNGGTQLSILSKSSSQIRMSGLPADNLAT

SMILES | target or system | assay | system | conditions | how to read | quantity | result
O=C1NC2(CC2)COc2ncc(F)cc2[C@H]2COCCN2c2ccn3ncc1c3n2 | – | – | Sprague-Dawley rat, female, kidneys | oral, 2.5 mg/kg/day, 4 weeks, end of treatment | – | organ-to-body weight ratio | 0.621 ± 0.034%
CCC[C@@H](C(=O)c1ccccc1)N1CCCC1 | SLC6A3 (Homo sapiens, UniProt Q01959, S149A) | transporter uptake, inhibitor, radiometric | – | – | – | Ki | 27 nM
CC(C)CC(C(=O)N1CC2(CC1C#N)C(=O)Nc1ccccc12)N(C)C(=O)c1cc2c(F)cc(F)c(F)c2[nH]1 (stereo not drawn) | Caspase-4 (Casp4, Mus musculus, UniProt P70343) | enzyme activity, inhibitor | – | – | – | IC50 | > 100000 nM
CCn1ccc(-c2cc([C@@H](C)NC(=O)c3cc(N4CCN(C)[C@H](C)C4)ccc3C)c3ccccc3n2)n1 | Vero E6 | – | – | 500 µM | – | viability | 1.91% and 0.716% and 2.15%
COc1ccccc1C(C[N+](=O)[O-])c1c(-c2ccccc2)[nH]c2ccccc12 (stereo not drawn) | CNR1 (Homo sapiens, UniProt P21554, P394A) | G protein activation, agonist, BRET | – | – | – | EC50 | 360 nM
Cc1ccc(OCCN(C)C)cc1C(=O)N[C@H](C)c1cc(-c2ccc(CNC3CCCC3)s2)nc2ccccc12 | Vero E6 | – | – | 125 µM | – | viability | 0% and 2.28%
CCCCCn1cc(C(=O)c2cccc3c2CC(C)(C)C3)c2ccccc21 | CNR1 (Homo sapiens, UniProt P21554, F177A) | cAMP, agonist, BRET | – | – | – | EC50 | 18.2 nM
CC(C)C[C@@H]1NC(=O)[C@H](CC(=O)O)NC(=O)CNC(=O)[C@H](CCCNC(=N)N)NC(=O)[C@H](Cc2ccccc2)NC(=O)[C@H](CCCCNC(=O)CCc2cn(CCCNC(=O)CCC(C(=O)O)N3CCN(CC(=O)O)CCN(CC(=O)O)CCN(CC(=O)O)CC3)nn2)N(C)C(=O)[C@H]2CCCN2C(=O)[C@H](Cc2ccccc2)NC(=O)[C@H](C)NC1=O (stereo partly drawn) | – | – | female CB17 SCID mice, tumour and liver | intravenous, dose not given, 90 min, 177Lu-labelled | reference: tumour over liver | tissue-to-tissue ratio | 3.5 ± 1.1
CCN(CC)C(=O)[C@@H]1C=C2c3cccc4c3c(cn4C(=O)c3ccco3)C[C@H]2N(C)C1 | ADRA1D (Homo sapiens, UniProt P25100) | ligand displacement, radioligand | – | – | – | Ki | > 10000 nM
CCN(CC)C(=O)c1ccc(C(c2cccc(O)c2)N2CC(C)N(Cc3ccccc3)CC2C)cc1 (stereo not drawn) | OPRD1 (Homo sapiens, UniProt P41143, D210N) | agonist | – | – | – | EC50 | 0.057 nM
Cc1ccc2c(C(C[N+](=O)[O-])c3cccs3)c(-c3ccccc3)[nH]c2c1 (stereo not drawn) | CNR1 (Homo sapiens, UniProt P21554, I169A) | G protein activation, agonist, BRET | – | – | – | EC50 | 250 nM
CC[C@H](C)[C@H](NC(=O)[C@H](CO)NC(=O)[C@H](CC(N)=O)NC(=O)[C@H](CC(C)C)NC(=O)[C@H](Cc1ccc(O)cc1)NC(=O)[C@H](CCCCN)NC(=O)[C@H](CCCCN)NC(=O)[C@@H](NC(=O)[C@H](C)NC(=O)[C@H](CCSC)NC(=O)[C@H](CCC(N)=O)NC(=O)[C@H](CCCCN)NC(=O)[C@H](CCCN=C(N)N)NC(=O)[C@H](CC(C)C)NC(=O)[C@H](CCCN=C(N)N)NC(=O)[C@@H](NC(=O)[C@H](Cc1ccc(O)cc1)NC(=O)[C@H](CC(N)=O)NC(=O)[C@H](CC(=O)O)NC(=O)[C@@H](NC(=O)[C@H](Cc1ccccc1)NC(=O)[C@@H](NC(=O)[C@H](C)NC(=O)[C@H](CC(=O)O)NC(=O)[C@H](CO)NC(=O)[C@@H](N)Cc1c[nH]cn1)C(C)C)[C@@H](C)O)[C@@H](C)O)C(C)C)C(=O)N[C@@H](CC(C)C)C(=O)N[C@@H](CC(N)=O)C(N)=O | ADCYAP1R1 (Homo sapiens, UniProt P41586) | cAMP production, agonist | COS-7 | 37 °C, AUC over 20 min | – | EC50 | 11.2 nM

Excerpt of the above:
SMILES | target or system | assay | system | conditions | how to read | quantity | result
CCCCCn1cc(C(=O)c2cccc3c2CC(C)(C)C3)c2ccccc21 | CNR1 (Homo sapiens, UniProt P21554, F177A) | cAMP, agonist, BRET | – | – | – | EC50 | 18.2 nM
